{"data": "Published values from different studies", "note": "Compare with care: the assays were run in different laboratories. Numbers after ± are the reported error."}
{"Compound": "CC[C@H](C)[C@@H]1NC(=O)[C@@H]2CCCN2C(=O)[C@H](CC(C)C)NC(=O)[C@H](CC(C)C)NC(=O)CNC(=O)[C@@H](NC(=O)[C@@H](NC(=O)[C@H](CC(=O)O)NC(=O)CNC(=O)[C@@H](NC(=O)[C@H](C)NC(=O)CNC(=O)[C@H](CCCCN)NC(=O)[C@H](CC(C)C)NC(=O)[C@H](CC(C)C)NC(=O)[C@H](CCCCN)NC(=O)CNC(=O)[C@@H](NC(=O)[C@@H](N)CC(C)C)C(C)C)C(C)C)C(C)C)CSSC[C@@H](C(=O)O)NC1=O", "test": "RNA-seq, item: Rhbdf2", "test system": "mouse, traumatic brain injury model, frontal cortex and hippocampus", "conditions": "dose not given", "scale": "baseline: TBI alone", "quantity": "log2 fold change", "result": -2.48}
{"Compound": "CC1(C)C(C(=O)c2cn(CCCCCF)c3ccccc23)C1(C)C", "test": "hypothermia, mouse tetrad, item: rectal temperature", "test system": "ICR mouse male", "conditions": "intravenous", "quantity": "ED50", "result": "0.6 µmol/kg"}
{"Compound": "CNC1(c2ccccc2Cl)CCCCC1=O (racemic)", "test": "intracerebral microdialysis", "test system": "BALB/cJ mice, medial prefrontal cortex", "conditions": "intraperitoneal, 10 mg/kg, 24 h, 0 to 120 min sampling", "scale": "baseline: vehicle", "quantity": "extracellular GABA AUC", "result": "increased"}
{"Compound": "COc1ccc2c3c1O[C@H]1C(=O)CC[C@@]4(O)[C@@H](C2)N(C)CC[C@]314", "test system": "mouse C57BL/6J, carrageenan-induced", "conditions": "ip, 1 mg/kg", "quantity": "heat allodynia", "result": "decreased"}
{"Compound": "COc1cc2c(Oc3ccc4[nH]c(C)cc4c3F)ccnc2cc1OCC1(N)CC1", "test system": "paediatric recurrent refractory sarcoma", "conditions": "concentration not given, whole group", "quantity": "grade 1 or 2 sinus bradycardia", "result": "5.9%"}
{"Compound": "C[C@H]1CN(c2n[nH]c3nc(N[C@H]4CC[C@H](NS(=O)(=O)CCC(F)(F)F)CC4)ncc23)CCO1", "tested on": "Paxillin (PXN, Homo sapiens, UniProt P49023)", "test": "competitor, Kinobeads competition, item: PXN", "test system": "human cell extract", "conditions": "0.8 µM", "scale": "baseline: vehicle", "quantity": "relative abundance", "result": 1.08}
{"Compound": "CC(C)C[C@H](NC(=O)[C@H](CCC(N)=O)NC(=O)[C@H](CO)NC(=O)[C@H](CO)NC(=O)[C@H](CCCNC(=N)N)NC(=O)[C@H](CCCNC(=N)N)NC(=O)[C@H](CCCNC(=N)N)NC(=O)[C@H](CC(C)C)NC(=O)[C@H](Cc1c[nH]cn1)NC(=O)[C@@H](NC(=O)[C@H](CCCCN)NC(=O)[C@H](CCCNC(=N)N)NC(=O)[C@H](CCCNC(=N)N)NC(=O)[C@H](CCCNC(=N)N)NC(=O)[C@H](CCC(N)=O)NC(=O)[C@H](CCCNC(=N)N)NC(=O)[C@H](CCCNC(=N)N)NC(=O)[C@H](CCCCN)NC(=O)[C@H](CCCCN)NC(=O)[C@H](CCCNC(=N)N)NC(=O)CNC(=O)[C@@H](N)Cc1ccc(O)cc1)[C@@H](C)O)C(=O)N[C@@H](CCCCN)C(N)=O", "test": "GABAA receptor-mediated mIPSCs", "test system": "CA1 pyramidal neurons, rat", "conditions": "dose not given, 5 min after inhibitory avoidance training", "quantity": "mIPSC frequency", "result": "decreased"}
{"Compound": "CCCCCn1cc(C(=O)C2C(C)(C)C2(C)C)c2ccccc21", "test": "ring immobility", "test system": "ICR mouse, male", "conditions": "intravenous", "quantity": "ED50", "result": "1 µmol/kg"}
{"Compound": "CCNC(CC)C(=O)c1ccc2c(c1)OCO2 (stereo not shown)", "test system": "C57BL/6J male mice", "conditions": "sc, 30 mg/kg", "quantity": "locomotor recovery time", "result": "~90 min"}
{"Compound": "CC[C@H](C)[C@H](NC(=O)[C@H](Cc1ccccc1)NC(=O)[C@H](CCC(=O)O)NC(=O)[C@H](CCCNC(=N)N)NC(=O)[C@H](C)NC(=O)[C@H](C)NC(=O)[C@H](CCC(N)=O)NC(=O)[C@H](CCC(=O)O)NC(=O)[C@H](CCC(=O)O)NC(=O)[C@H](CC(C)C)NC(=O)[C@H](Cc1ccc(O)cc1)NC(=O)[C@H](CO)NC(=O)[C@H](CO)NC(=O)[C@@H](NC(=O)[C@H](CC(=O)O)NC(=O)[C@H](CO)NC(=O)[C@@H](NC(=O)[C@H](Cc1ccccc1)NC(=O)[C@@H](NC(=O)CNC(=O)[C@H](CCC(=O)O)NC(=O)[C@H](C)NC(=O)CCc1c[nH]cn1)[C@@H](C)O)[C@@H](C)O)C(C)C)C(=O)N[C@@H](C)C(=O)N[C@@H](Cc1c[nH]c2ccccc12)C(=O)N[C@@H](CC(C)C)C(=O)N[C@H](C(=O)N[C@@H](CCCNC(=N)N)C(=O)NCC(=O)N[C@@H](CCCNC(=N)N)C(=O)N[C@@H](CCCCNC(=O)COCCOCCNC(=O)COCCOCCNC(=O)CC[C@H](NC(=O)CCCCCCCCCCCCCCCCC(=O)O)C(=O)O)C(=O)NCC(=O)NCC(=O)N[C@@H](CO)C(=O)N[C@@H](CCCCNc1c(NCCCCCN(O)C(=O)CCC(=O)NCCCCCN(O)C(=O)CCC(=O)NCCCCCN(O)C(C)=O)c(=O)c1=O)C(=O)O)C(C)C [zirconium-89 labelled]", "test system": "rat, colon", "conditions": "iv, 3 nmol/kg, 168 h, ex vivo", "quantity": "tissue uptake", "result": "0.17 %ID/g"}
{"Compound": "C#CCN(C)[C@H](C)Cc1ccccc1", "test system": "dentate gyrus granule cells, APP/PS1 mice", "conditions": "oral, 10 mg/kg, 672 h, 4 weeks treatment, with: 300 µA stimulation", "quantity": "evoked spike probability", "result": "0.158 ± 0.0848"}
{"Compound": "CN1CC[C@]23c4c5ccc(O)c4O[C@H]2[C@@H](OS(=O)(=O)O)C=C[C@H]3[C@H]1C5", "test": "tail withdrawal latency test", "test system": "STZ-diabetic rats", "conditions": "ip, 3 mg/kg daily, 9 days, tolerance", "quantity": "reduction of antinociceptive effect", "result": "~10%"}
{"Compound": "C[C@]12CC[C@H]3[C@@H](CC=C4CC(O)CC[C@@]43CO)[C@@H]1CCC2O (stereo partly shown)", "test system": "rat, GAN diet-induced MASH", "conditions": "intraperitoneal, 20 mg/kg daily, final two weeks, GAN diet 43 weeks", "scale": "baseline: vehicle", "quantity": "liver weight, ratio, to body weight", "result": "decreased"}
{"Compound": "CC(C)C[C@H](CN)CC(=O)O", "test": "mechanical withdrawal threshold", "test system": "mouse, paclitaxel neuropathic pain", "conditions": "oral", "quantity": "ED50", "result": "7.5 mg/kg"}
{"Compound": "CNC(C)(C)C(=O)c1ccccc1", "test": "ICSS facilitation, intracranial self-stimulation", "test system": "rat", "scale": "baseline: baseline", "quantity": "Emax", "result": "189%"}
{"Compound": "CN1CC[C@]23c4c5ccc(O)c4O[C@H]2[C@@H](O)C=C[C@H]3[C@H]1C5", "test": "hot plate latency", "test system": "ICR mice", "conditions": "intraperitoneal, 10 mg/kg, 3 h", "quantity": "maximal possible effect", "result": "~30%"}
{"Compound": "CCCCCc1cc(O)c2c(c1)OC(C)(C)[C@@H]1CCC(C)=C[C@@H]21", "test": "hypothermia (rectal temperature)", "test system": "ICR mouse, male", "conditions": "intravenous", "quantity": "ED50", "result": "4 µmol/kg"}
{"Compound": "CC(C)C[C@H](NC(=O)C[C@H](O)[C@H](CC(C)C)NC(=O)[C@H](Cc1c[nH]cn1)NC(=O)CNC(=O)[C@@H](NC(=O)[C@H](C)NC(=O)[C@H](Cc1c[nH]c2ccccc12)NC(=O)[C@H](CCC(N)=O)NC(=O)[C@@H](Cc1ccccc1)NC(=O)CCNC(=O)CCSc1nnc(NCCC(=O)NCCC(=O)NCCCC[C@H](NC(=O)N[C@@H](CCC(=O)O)C(=O)O)C(=O)O)c2c1CCC1C(CC2)C1COC(=O)NCCNC(=O)CC[C@H](C(=O)O)N1CCN(CC(=O)O)CCN(CC(=O)O)CC1)C(C)C)C(N)=O (stereo partly shown) [gallium-68 labelled]", "test system": "athymic NMRI nude mouse, blood", "conditions": "intravenous, 533 pmol, 2 h", "quantity": "tissue uptake", "result": "0.16 %ID/g"}
{"Compound": "CCN(CC)C(=O)[C@@H]1C=C2c3cccc4[nH]cc(c34)C[C@H]2N(C)C1", "test system": "healthy participants", "conditions": "dose not given, end-of-study assessment", "scale": "baseline: compound over placebo", "quantity": "participants rating session more pleasant", "result": "30%"}
{"Compound": "CC[C@H](C)[C@H](NC(=O)[C@H](Cc1ccccc1)NC(=O)[C@H](CCC(=O)O)NC(=O)[C@H](CCCNC(=N)N)NC(=O)[C@H](C)NC(=O)[C@H](C)NC(=O)[C@H](CCC(N)=O)NC(=O)[C@H](CCCCNc1c(NCCCCCN(O)C(=O)CCC(=O)NCCCCCN(O)C(=O)CCC(=O)NCCCCCN(O)C(C)=O)c(=O)c1=O)NC(=O)[C@H](CCC(=O)O)NC(=O)[C@H](CC(C)C)NC(=O)[C@H](Cc1ccc(O)cc1)NC(=O)[C@H](CO)NC(=O)[C@H](CO)NC(=O)[C@H](CCCCNc1c(NCCCCCN(O)C(=O)CCC(=O)NCCCCCN(O)C(=O)CCC(=O)NCCCCCN(O)C(C)=O)c(=O)c1=O)NC(=O)[C@H](CC(=O)O)NC(=O)[C@H](CO)NC(=O)[C@@H](NC(=O)[C@H](Cc1ccccc1)NC(=O)[C@@H](NC(=O)CNC(=O)[C@H](CCC(=O)O)NC(=O)[C@H](C)NC(=O)CCc1cnc[nH]1)[C@@H](C)O)[C@@H](C)O)C(=O)N[C@@H](C)C(=O)N[C@@H](Cc1c[nH]c2ccccc12)C(=O)N[C@@H](CC(C)C)C(=O)N[C@H](C(=O)N[C@@H](CCCNC(=N)N)C(=O)NCC(=O)N[C@@H](CCCNC(=N)N)C(=O)N[C@@H](CCCCNC(=O)COCCOCCNC(=O)COCCOCCNC(=O)CC[C@H](NC(=O)CCCCCCCCCCCCCCCCC(=O)O)C(=O)O)C(=O)O)C(C)C", "tested on": "GLP1R (Homo sapiens, UniProt P43220)", "test": "cAMP reporter gene, agonist, CRE luciferase", "test system": "BHK", "conditions": "with Zr, 1% HSA", "quantity": "EC50", "result": "1.8 nM"}
{"Compound": "CNC(C)C(=O)c1ccccc1 (racemic)", "test": "ICSS facilitation, intracranial self-stimulation", "test system": "rat", "scale": "baseline: baseline", "quantity": "Emax", "result": "180%"}
{"Compound": "O=C(O)C[C@H](NC(=O)[C@H](CC(=O)O)NC(=O)[C@H](CC(=O)O)NC(=O)[C@H](CC(=O)O)NC(=O)[C@H](CC(=O)O)NC(=O)[C@H](CC(=O)O)NC(=O)[C@H](CC(=O)O)NC(=O)[C@H](CC(=O)O)NC(=O)[C@H](CC(=O)O)NC(=O)[C@H](CC(=O)O)NC(=O)[C@H](CC(=O)O)NC(=O)[C@H](CCCCNC(=O)c1ccc(C(=O)NCCOCCOB2BBBBBB3BBBB3B2)cc1)NC(=O)CN1CCN(CC(=O)O)CCN(CC(=O)O)CCN(CC(=O)O)CC1)C(=O)O [gallium-67 labelled]", "test": "gamma counting", "test system": "mouse, ddY, male, 6 weeks old, blood", "conditions": "intravenous, 37 kBq, 1 h", "quantity": "tissue uptake", "result": "0.46 %ID/g"}
